Experimental data pooled from the literature.
Each line is one published result; not all experiments were run side by side. ± gives the spread as reported.
APP amyloid-beta plaques: Amyloid-beta precursor protein, amyloid-beta plaques (APP, Homo sapiens, UniProt P05067)
Chain of UniProt P05067 (whole entry, looked up): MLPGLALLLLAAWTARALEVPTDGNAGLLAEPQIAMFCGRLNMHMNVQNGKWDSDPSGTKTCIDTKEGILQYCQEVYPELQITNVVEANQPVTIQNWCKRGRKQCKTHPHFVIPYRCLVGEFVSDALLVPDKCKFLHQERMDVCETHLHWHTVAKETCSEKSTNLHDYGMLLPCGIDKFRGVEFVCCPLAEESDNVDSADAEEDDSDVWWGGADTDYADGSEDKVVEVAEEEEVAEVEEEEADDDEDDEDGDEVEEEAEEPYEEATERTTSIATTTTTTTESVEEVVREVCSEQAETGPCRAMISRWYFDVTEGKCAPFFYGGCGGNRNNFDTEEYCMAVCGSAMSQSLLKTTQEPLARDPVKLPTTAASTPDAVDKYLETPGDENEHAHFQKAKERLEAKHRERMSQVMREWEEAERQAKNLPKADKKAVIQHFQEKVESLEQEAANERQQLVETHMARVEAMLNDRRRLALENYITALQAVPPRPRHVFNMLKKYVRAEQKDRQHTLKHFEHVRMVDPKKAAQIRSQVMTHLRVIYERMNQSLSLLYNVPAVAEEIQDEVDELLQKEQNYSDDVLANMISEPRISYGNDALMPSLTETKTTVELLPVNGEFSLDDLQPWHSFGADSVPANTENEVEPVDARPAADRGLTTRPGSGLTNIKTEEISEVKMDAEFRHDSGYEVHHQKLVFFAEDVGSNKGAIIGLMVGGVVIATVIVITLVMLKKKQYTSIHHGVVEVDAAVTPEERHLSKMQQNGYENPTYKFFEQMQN
APP amyloid-beta aggregates: Amyloid-beta precursor protein, amyloid-beta aggregates (APP, Homo sapiens, UniProt P05067)
APP: Amyloid-beta precursor protein (APP, Homo sapiens, UniProt P05067)

| SMILES | target | test | test system | conditions | measurement | value |
| --- | --- | --- | --- | --- | --- | --- |
| COc1ccc(CCN2CCC(Nc3nc4ccccc4n3Cc3ccc(F)cc3)CC2)cc1 | APP amyloid-beta plaques | binding, [3H]AV-45 displacement | Alzheimer's disease brain | added: [3H]AV-45 10 nM | IC50 | > 10000 nM |
| O=C(C=Cc1ccc(O)c(OC(F)(F)F)c1)C(CCOCCOCCOCCOC1CCCCO1)C(=O)C=Cc1ccc(O)c(OC(F)(F)F)c1 (stereo not shown) | APP amyloid-beta aggregates | binding, thioflavin T competition |  |  | IC50 | 930 nM |
| Fc1ccc(-c2ccc3c(c2)[nH]c2ccncc23)cn1 | APP amyloid-beta plaques | radioligand competition binding | AD brain homogenate | 2 h, 37 °C, added: [3H]PIB | Ki | > 1000 nM |
| COC(=O)COc1ccc(C=CC(=O)CC(=O)C=Cc2ccc(O)c(OC)c2)cc1OC | APP amyloid-beta aggregates | binding, thioflavin T competition |  |  | IC50 | 140 nM |
| COc1cc(/C=C/C(O)=C/C(=O)/C=C/c2ccc(OCc3ccccc3)c(OC)c2)ccc1O | APP | amyloid aggregation, inhibitor, fluorescence |  |  | IC50 | 2050 nM |
| COC(=O)CCC(C(=O)C=Cc1ccc(O)c(OC(F)(F)F)c1)C(=O)C=Cc1ccco1 (stereo not shown) | APP amyloid-beta aggregates | binding, thioflavin T competition |  |  | IC50 | 650 nM |
| COc1ccc(-c2ccc3c(c2)[nH]c2ccncc23)cc1 | APP amyloid-beta plaques | binding, [3H]AV-45 displacement | Alzheimer's disease brain | added: [3H]AV-45 10 nM | IC50 | 11.2 nM |
| COCCOCCOCCOC(=O)/C(C#N)=C/c1ccc2cc(N3CCCCC3)ccc2c1 | Amyloid-beta precursor protein, Aβ42 aggregates (APP, Homo sapiens, UniProt P05067) | binding, fluorescence titration |  | 5% DMSO in water, added: aggregated Abeta42 5 µM | Kd | 1400 ± 200 nM |
| CNc1ccc(/C=C/c2ccc(OCCOCCOCCF)nc2)cc1 [fluorine-18 labelled] | APP amyloid-beta aggregates | saturation binding, refers to: amyloid-beta | Alzheimer's disease brain homogenate | mean of brains | Kd | 3.72 ± 0.3 nM |
| O=C(C=Cc1ccc(O)c(OC(F)(F)F)c1)C(CCOC1CCCCO1)C(=O)C=Cc1ccc(O)c(OC(F)(F)F)c1 (stereo not shown) | APP amyloid-beta aggregates | binding, thioflavin T competition |  |  | IC50 | 570 nM |
| COc1ccc(-c2ccc3c(c2)[nH]c2ccncc23)cn1 | APP amyloid-beta plaques | binding, [3H]AV-45 displacement | Alzheimer's disease brain | added: [3H]AV-45 10 nM | IC50 | > 10000 nM |
| CNc1ccc(/C=C/c2ccc(OCCOCCOCCOCCOCCOCCNC(=O)CO/N=C/c3ccc(OCCOCCOCCF)nc3)nc2)cc1 [fluorine-18 labelled] | APP amyloid-beta plaques | binding, competition binding | Alzheimer brain gray matter homogenate | 120 min, pH 7.2, 37 °C, added: [18F]AV-45 | Ki | 25.2 ± 0.9 nM |
| COC(=O)c1ccc(-c2ccc3c(c2)[nH]c2ccncc23)cn1 | APP amyloid-beta plaques | binding, [3H]AV-45 displacement | Alzheimer's disease brain | added: [3H]AV-45 10 nM | IC50 | > 10000 nM |
| Nc1ccc(-c2ccc3cc(OCCOCCN4CCNC4=O)ccc3n2)cc1 | APP amyloid-beta plaques | radioligand competition binding | AD brain homogenate | 2 h, 37 °C, added: [3H]PIB | Ki | > 1000 nM |
| COc1ccc(-c2csc(NN=Cc3ccccn3)n2)cc1 | APP amyloid-beta plaques | binding, [3H]AV-45 displacement | Alzheimer's disease brain | added: [3H]AV-45 10 nM | IC50 | > 10000 nM |
| C=CCOC(=O)CCC(=O)Oc1ccc(/C=C/C(=O)/C=C(O)/C=C/c2ccc(OC(=O)CCC(=O)OCC=C)c(OC)c2)cc1OC | APP | amyloid aggregation, inhibitor, fluorescence |  |  | IC50 | 1960 nM |

Excerpt of the above:
| SMILES | target | test | test system | conditions | measurement | value |
| --- | --- | --- | --- | --- | --- | --- |
| COc1ccc(CCN2CCC(Nc3nc4ccccc4n3Cc3ccc(F)cc3)CC2)cc1 | APP amyloid-beta plaques | binding, [3H]AV-45 displacement | Alzheimer's disease brain | added: [3H]AV-45 10 nM | IC50 | > 10000 nM |
| O=C(C=Cc1ccc(O)c(OC(F)(F)F)c1)C(CCOCCOCCOCCOC1CCCCO1)C(=O)C=Cc1ccc(O)c(OC(F)(F)F)c1 (stereo not shown) | APP amyloid-beta aggregates | binding, thioflavin T competition |  |  | IC50 | 930 nM |
| Fc1ccc(-c2ccc3c(c2)[nH]c2ccncc23)cn1 | APP amyloid-beta plaques | radioligand competition binding | AD brain homogenate | 2 h, 37 °C, added: [3H]PIB | Ki | > 1000 nM |
